Published values collected from several papers.
A part holds a random share of what one study measured. ± gives the spread as reported.

Series 1
Target: Replicase polyprotein 1ab, nsp13 helicase (rep, Severe acute respiratory syndrome coronavirus 2, UniProt P0DTD1)
Observed: helicase ATPase activity
Organism: SARS-CoV-2
Tested at: 20 µM
SMILES | inhibition [%]
O=Nc1ccc(O)c2ncccc12 | 103
CC(C)n1nc(C#Cc2ccccc2)c2c(N)ncnc21 | 106
O=C(O)c1ccc(N2C(=O)/C(=C\c3ccc(-c4ccc([N+](=O)[O-])cc4)o3)C=C2c2ccccc2)cc1 | 103
O=[N+]([O-])C=Cc1ccc2c(c1)OCO2 | 101
C=CC(=O)c1ccc2ccccc2c1 | 106
Nc1nnc(Sc2ncc([N+](=O)[O-])s2)s1 | 108
CCn1c(N)c(C(=O)NC)c(=O)c2ccc(C#C[C@@](C)(O)COC)nc21 | 106
CC(=O)[O][Pt]([NH2])([Cl])([Cl])([NH]C1CCCCC1)[O]C(C)=O | 108
O=C1C=CC(=O)C2=C1C1c3ccccc3C2c2ccccc21 | 108
CC(C)(C)c1ccc(S(=O)(=O)/C=C/C#N)cc1 | 106
C[CH2][Hg][S]c1ccccc1C(=O)[O-].[Na+] | 105
O=S(=O)(O)c1ccc(-c2c3nc(c(-c4ccc(S(=O)(=O)O)cc4)c4ccc([nH]4)c(-c4ccc(S(=O)(=O)O)cc4)c4nc(c(-c5ccc(S(=O)(=O)O)cc5)c5ccc2[nH]5)C=C4)C=C3)cc1 | 103
CN=c1nc(-c2ccccc2)n(-c2ccccc2)s1 | 107
CC(=O)OC[C@H]1O[C@@H]([S-])[C@H](OC(C)=O)[C@@H](OC(C)=O)[C@@H]1OC(C)=O.CCP(CC)CC.[Au+] | 108
O=C(/C=C/c1ccc2ccccc2n1)c1ccncc1 | 108
CC(C)N[C@@H]1CCn2c(=O)[nH]c3cccc(c32)[C@H]1O | 99.6

Series 2
Target: Replicase polyprotein 1ab, main protease (rep, Severe acute respiratory syndrome coronavirus 2, UniProt P0DTD1)
Observed: enzyme activity
Mode: inhibitor
Tested at: 20 µM
Setting: hit confirmation, with DTT
SMILES | inhibition
O=C1NC(=O)C(c2ccccc2)N1 (centres unmarked) | 92%
O=C(/C=C/c1ccc2ccc(C(F)(F)F)cc2n1)c1ccncc1 | 14.8%
S=C=NCc1ccccc1 | 77.7%

Other studies, line by line
SMILES | tested on | test | test system | conditions | how to read | measurement | value
C=C[C@@H]1C[C@]1(NC(=O)[C@@H]1C[C@@H]2CN1C(=O)[C@H](C(C)(C)C)NC(=O)O[C@@H]1C[C@H]1CCCCCc1nc3ccc(OC)cc3nc1O2)C(=O)NS(=O)(=O)C1CC1 | SARS-CoV-2 | viral replication, immunofluorescence, measured: nucleoprotein | Vero E6 |  |  | IC50 | 10.8 µM
Cc1cn([C@H]2C[C@H](N=[N+]=[N-])[C@@H](CO)O2)c(=O)[nH]c1=O | HIV-1 | viral replication | human PBMC, subtype F 93BR019, CXCR4-tropic clinical isolate |  |  | EC50 | 0.0058 ± 0.00395 µM
CC(C)(C)NCC(O)COc1cccc2[nH]c(C#N)cc12 (centres unmarked) | mouse MPNST tumor cells | high-content nuclear imaging, measured: cell number |  | 10 µM, 12 h, mean of 2 replicates | relative to: plate mean, higher = more cells | nuclei count | 0.352 z-score
NC(=O)c1cc(-c2cc(NCc3ccccn3)nc3[nH]ccc23)cs1 | Lassa mammarenavirus | viral replication | Huh-7 | 10 µM, 72 h |  | remaining activity | 53%
CC(C)CC(NC(=O)OCc1ccccc1)C(=O)NC(C(=O)NCC(=O)C=[N+]=[N-])C(C)C (centres unmarked) | SARS-CoV-2 | viral replication, inhibitor | Vero E6, USA-WA1/2020 | 24 h |  | EC90 | 2.05 µM
Cc1cccc(C)c1OCC(=O)N[C@@H](Cc1ccccc1)[C@@H](O)C[C@H](Cc1ccccc1)NC(=O)[C@H](C(C)C)N1CCCNC1=O | SARS-CoV-2 | viral replication, high-content imaging screen |  | cell-based |  | EC50 | 15.7 µM
CCc1c(C(=O)C(N)=O)c2c(OCC(=O)O)cccc2n1Cc1ccccc1 | C2C12 |  |  | 10 µM, together with: KL venom | relative to: venom alone | viability difference | 22.9%
CCCSc1nc(N[C@@H]2C[C@H]2c2ccc(F)c(F)c2)c2nnn([C@@H]3C[C@H](OCCO)[C@@H](O)[C@H]3O)c2n1 | HEK-293T | pseudovirus infection, FDA-approved drug library screen | VSV pseudotyped with SARS-CoV-2 spike | 10 µM, 16 h | relative to: vehicle-treated | GFP-positive cells | 63.2%
CNC(=O)[C@@H](NC(=O)[C@H](CC(C)C)[C@H](O)C(=O)NO)C(C)(C)C | C2C12 |  |  | 1 µM, together with: AP venom | relative to: venom alone | viability difference | 45.4%
COc1cc2c(Oc3ccc4[nH]c(C)cc4c3F)ccnc2cc1OCC1(N)CC1 | SARS-CoV-2 | viral replication, high-content imaging screen |  | cell-based |  | EC50 | > 100 µM
CCn1nc(C)c(C(=O)NCc2nc(-c3cccc(C)c3)no2)c1C | Lassa mammarenavirus | viral replication | Huh-7 | 10 µM, 72 h |  | remaining activity | 54%
CC[C@H](C)[C@H](NC(=O)[C@H](CC(C)C)NC(=O)[C@H](Cc1c[nH]c2ccccc12)NC(=O)[C@H](CCC(N)=O)NC(=O)[C@@H](NC(=O)[C@H](Cc1ccccc1)NC(=O)[C@H](C)NC(=O)[C@H](CCCCNC(=O)COCCOCCNC(=O)COCCOCCNC(=O)CC[C@H](NC(=O)CCCCCCCCCCCCCCCCCCC(=O)O)C(=O)O)NC(=O)[C@H](CCC(N)=O)NC(=O)[C@H](C)NC(=O)[C@@H](NC(=O)[C@H](CCCCN)NC(=O)[C@H](CC(=O)O)NC(=O)[C@H](CC(C)C)NC(=O)C(C)(C)NC(=O)[C@@H](NC(=O)[C@H](CO)NC(=O)[C@H](Cc1ccc(O)cc1)NC(=O)[C@H](CC(=O)O)NC(=O)[C@H](CO)NC(=O)[C@@H](NC(=O)[C@H](Cc1ccccc1)NC(=O)[C@@H](NC(=O)CNC(=O)[C@H](CCC(=O)O)NC(=O)C(C)(C)NC(=O)[C@@H](N)Cc1ccc(O)cc1)[C@@H](C)O)[C@@H](C)O)[C@@H](C)CC)[C@@H](C)CC)C(C)C)C(=O)N[C@@H](C)C(=O)NCC(=O)NCC(=O)N1CCC[C@H]1C(=O)N[C@@H](CO)C(=O)N[C@@H](CO)C(=O)NCC(=O)N[C@@H](C)C(=O)N1CCC[C@H]1C(=O)N1CCC[C@H]1C(=O)N1CCC[C@H]1C(=O)N[C@@H](CO)C(N)=O |  |  | healthy subjects, single ascending dose | 0.5 mg, titre increase ≥4-fold |  | treatment-boosted ADA positive subjects | 0%
CC(C)/N=c1\cc2n(-c3ccc(Cl)cc3)c3ccccc3nc-2cc1Nc1ccc(Cl)cc1 | SARS-CoV-2 | viral replication, inhibitor | Vero E6, USA-WA1/2020 | 24 h |  | EC90 | 0.809 µM

Some of these lines once more (other studies, line by line):
SMILES | tested on | test | test system | conditions | how to read | measurement | value
Cc1cn([C@H]2C[C@H](N=[N+]=[N-])[C@@H](CO)O2)c(=O)[nH]c1=O | HIV-1 | viral replication | human PBMC, subtype F 93BR019, CXCR4-tropic clinical isolate |  |  | EC50 | 0.0058 ± 0.00395 µM
CCCSc1nc(N[C@@H]2C[C@H]2c2ccc(F)c(F)c2)c2nnn([C@@H]3C[C@H](OCCO)[C@@H](O)[C@H]3O)c2n1 | HEK-293T | pseudovirus infection, FDA-approved drug library screen | VSV pseudotyped with SARS-CoV-2 spike | 10 µM, 16 h | relative to: vehicle-treated | GFP-positive cells | 63.2%
COc1cc2c(Oc3ccc4[nH]c(C)cc4c3F)ccnc2cc1OCC1(N)CC1 | SARS-CoV-2 | viral replication, high-content imaging screen |  | cell-based |  | EC50 | > 100 µM
